Results from different studies.
Protocols differ between the studies behind these lines. Values joined by “and” are separate records of one study, mostly repeats; a detail may differ. ± gives the spread as reported.
Organism: SARS-CoV-2

O=C(CCCCCCc1ccc(O)c(O)c1)c1c(O)cccc1O
selectivity index (HEK293T ACE2, Alpha B.1.1.7; reference: CC50 over EC50): 2.2

CC(C)C(=O)OC[C@H]1O[C@@](C#N)(n2ccc(N)nc2=O)[C@H](O)[C@@H]1O
EC90 (viral replication; Calu-3, Alpha): 6800 ± 400 nM

CC(=O)Oc1ccc(CCCCCCCCC(=O)c2c(OC(C)=O)cccc2OC(C)=O)cc1OC(C)=O
selectivity index (HEK293T ACE2, Gamma P.1; reference: CC50 over EC50): 4.3

CCc1nnc(NS(=O)(=O)c2ccc(NC(=O)c3cccc4ccccc34)cc2)s1
IC50 (viral entry; Omicron BA.5; 120 h): 1500 nM

O=C(CCCCCCCCCCc1ccc(O)c(O)c1)c1c(O)cccc1O
selectivity index (HEK293T ACE2, Delta B.1.617.2; reference: CC50 over EC50): 2.6

CCn1ccc(-c2cc(-c3cnn(C)c3)cc([C@@H](C)NC(=O)c3cc(OCCN(C)C)ccc3C)c2)n1
T115T (ACC) mutation frequency (WA1 lineage passage 11; concentration not given): 90% and 72.9% and 88.4% and 84.2%

CC1OC(OC2C(OC(=O)C34CCC(C)(C)CC3C3=CCC5C6(C)CCC(OC7OC(CO)C(O)C(O)C7O)C(C)(C)C6CCC5(C)C3(C)CC4O)OCC(O)C2O)C(O)C(O)C1OC1OCC(O)C(OC2OCC(O)C(OC3OCC(O)C(O)C3O)C2O)C1O (stereo not shown)
IC50 (pseudovirus entry; H1299 ACE2/TMPRSS2+): 610 nM

N#CC1(c2ccc3c(N)ncnn23)OC(COP(=O)(O)OP(=O)(O)OP(=O)(O)O)C(O)C1O (stereo not shown)
IC100 (cytopathic effect; Vero C1008, Omicron BA.1; 48 h): 4.88 ± 0.22 µM

CC(C)c1ccc(C(=O)Nc2ccc(CN)cc2)c(O)c1
inhibition (viral infection; D614G; 10 µM): > 56%

O=C(NC1CCN(c2ncnc3[nH]cnc23)CC1)c1cccc(NS(=O)(=O)c2ccc(C(F)(F)F)cc2)c1
EC50 (viral replication; A549-ACE2, Omicron variant; 24 h): 64 nM

Oc1ccc(CCCCCCCCC(O)c2c(O)cccc2O)cc1O (stereo not shown)
selectivity index (HEK293T ACE2, Gamma P.1; reference: CC50 over EC50): 2.4

CC(C)CC(C(=O)N1CC2(CC1C#N)C(=O)Nc1ccccc12)N(C)C(=O)c1cc2c(F)cc(F)c(F)c2[nH]1 (stereo not shown)
inhibition (viral replication, infectious virus; Vero E6-TMPRSS2, Omicron variant; 0.3 µM): 100% and 99.9% and 99.6%

CC1OC(OC2C(OC(=O)C34CCC(C)(C)CC3C3=CCC5C6(C)CCC(OC7OC(CO)C(O)C(O)C7O)C(C)(C)C6CCC5(C)C3(C)CC4O)OCC(O)C2O)C(O)C(O)C1OC1OCC(O)C(OC2OCC(O)C(O)C2O)C1O (stereo not shown)
IC50 (pseudovirus entry; H1299 ACE2/TMPRSS2+): 650 nM
